Literature values that unrelated publications cite.
Protocols differ between the studies behind these lines. pIC50: −log10 of the molar value. In brackets after ≈: the same amount, converted by molar mass.

Molecule | target or system | assay | system | setting | scale | quantity | result
CCC(CC)COC(=O)[C@H](C)N[P@](=O)(OC[C@H]1O[C@@](C#N)(c2ccc3c(N)ncnn23)[C@H](O)[C@@H]1O)Oc1ccccc1 |  |  | human | intravenous infusion, 0.5 h infusion |  | Tmax | 40.2 min
CCC[C@@H]1C[C@@H](C(=O)N[C@@H]([C@H]2O[C@H](SC)[C@H](O)[C@@H](O)[C@H]2O)[C@H](C)Cl)N(C)C1 | Streptococcus pneumoniae | E-test | strain 700676 serotype 14 resistant |  |  | MIC | 0.12 µg/mL (≈ 0.282 µM)
COc1ccc2c(c1)[nH]c1c(C)nccc12 | human DYRK1B | kinase activity, inhibitor |  |  |  | pIC50 | 7.55
KQLGQVMLL | HLA class I histocompatibility antigen, B alpha chain, allele B*48:01 (Homo sapiens, UniProt P01889) | peptide-MHC binding | peptide |  |  | pIC50 | 8.17
CC[C@H]1OC(=O)[C@H](C)[C@@H](O[C@H]2C[C@@](C)(OC)[C@@H](O)[C@H](C)O2)[C@H](C)[C@@H](O[C@@H]2O[C@H](C)C[C@H](N(C)C)[C@H]2O)[C@](C)(O)C[C@@H](C)C(=O)[C@H](C)[C@@H](O)[C@]1(C)O | Streptococcus pneumoniae | E-test | strain 700678 serotype 19A resistant |  |  | MIC | > 32 µg/mL
CCCSc1ccc2nc(NC(=O)OC)[nH]c2c1 |  |  | simulated gastric fluid | pH 1.2 |  | solubility | ~500 µg/mL (≈ 1880 µM)
CC(C)(C)[C@H](NC(=O)C(F)(F)F)C(=O)N1C[C@H]2[C@@H]([C@H]1C(=O)N[C@H](C#N)C[C@@H]1CCNC1=O)C2(C)C |  |  | rabbit | 1000 mg/kg/day | relative to: control | fetal weight | 0.91 fold
C[C@H](NP(=O)(O)OC[C@H]1O[C@@](C#N)(c2ccc3c(N)ncnn23)[C@H](O)[C@@H]1O)C(=O)O |  |  | plasma |  |  | elimination half-life | 78 min
CCCC(C(=O)c1ccc2c(c1)OCO2)N1CCCC1.Cl (racemic) |  |  | male Sprague-Dawley rat, striatum | subcutaneous, 1 mg/kg |  | striatal concentration | ~1000 ng/g

Repeated from above:
Molecule | target or system | assay | system | setting | scale | quantity | result
CCCSc1ccc2nc(NC(=O)OC)[nH]c2c1 |  |  | simulated gastric fluid | pH 1.2 |  | solubility | ~500 µg/mL (≈ 1880 µM)
